{"data": "Published values from different studies", "target": "Mitogen-activated protein kinase 11 (MAPK11, Homo sapiens, UniProt Q15759)", "note": "Protocols differ between the studies behind these lines.", "UniProt Q15759, sequence (whole entry, looked up)": "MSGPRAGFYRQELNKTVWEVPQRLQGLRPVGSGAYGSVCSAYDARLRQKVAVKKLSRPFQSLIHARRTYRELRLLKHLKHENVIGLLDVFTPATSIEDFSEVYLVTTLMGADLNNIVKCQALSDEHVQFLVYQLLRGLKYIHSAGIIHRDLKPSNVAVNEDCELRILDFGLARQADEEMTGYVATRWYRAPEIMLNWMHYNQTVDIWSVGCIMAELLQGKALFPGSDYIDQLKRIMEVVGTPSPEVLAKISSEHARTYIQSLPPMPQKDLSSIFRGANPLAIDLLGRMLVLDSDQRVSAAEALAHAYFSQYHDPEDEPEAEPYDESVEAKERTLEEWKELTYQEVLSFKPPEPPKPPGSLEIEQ"}
{"SMILES": "Cc1cc(C)nc(NC(=S)N2CCN(Cc3ccc(C(F)(F)F)cc3)CC2)c1", "test": "inhibitor, ADP-Glo", "setting": "concentration not given", "endpoint": "kinase activity", "value": "no effect"}
{"SMILES": "c1cnc2ccc(Nc3nc(NC4CC4)c4nc[nH]c4n3)cc2c1", "test": "kinase activity, inhibitor, SelectScreen kinase profiling", "setting": "1 µM", "how to read": "baseline: control", "endpoint": "remaining activity", "value": "92%"}
{"SMILES": "[2H]c1cc(C)c(NC(=O)c2cnc(Nc3cc(N4CCC(O)CC4)nc(C)n3)s2)c(Cl)c1", "setting": "0.001 µM", "endpoint": "inhibition", "value": "< 50%"}
{"SMILES": "Cc1cc(Nc2cc(N3CCN(C)CC3)nc(Sc3ccc(NC(=O)C4CC4)cc3)n2)[nH]n1", "test": "kinase activity, KinaseProfiler", "setting": "0.03 µM, species human", "how to read": "baseline: control", "endpoint": "remaining activity", "value": "93%"}
{"SMILES": "COc1cc(-c2cncc3c2CN(C)Cc2cc(N4CCNCC4)ccc2-3)cc(OC)c1OC", "test": "kinase activity", "setting": "1 µM, human enzyme, with: ATP 10 µM", "how to read": "baseline: DMSO control", "endpoint": "remaining activity", "value": "92%"}
{"SMILES": "COc1cc(N2CCN(C)CC2)ccc1Nc1nc(N)n(C(=S)NCc2c(Cl)cccc2Cl)n1", "test": "enzyme activity", "setting": "10 µM", "how to read": "baseline: control", "endpoint": "remaining activity", "value": "3.4%"}
{"SMILES": "[2H]c1cc(C)c(NC(=O)c2cnc(Nc3cc(N4CCCCC4)nc(C)n3)s2)c(Cl)c1", "setting": "0.01 µM", "endpoint": "inhibition", "value": "< 30%"}
{"SMILES": "O=C1NC(=O)/C(=C/c2ccc(-c3ccc(F)cc3O)o2)S1", "test": "enzyme activity", "setting": "10 µM", "endpoint": "remaining activity", "value": "74%"}
{"SMILES": "COc1cc(F)ccc1-c1ncnc(Nc2cccc(C[S@](C)(=N)=O)c2)n1", "test": "kinase activity", "setting": "10 µM, with: 10 µM ATP", "endpoint": "remaining activity", "value": "105%"}
{"note": "For quick reference, copied from above:"}
{"SMILES": "[2H]c1cc(C)c(NC(=O)c2cnc(Nc3cc(N4CCC(O)CC4)nc(C)n3)s2)c(Cl)c1", "setting": "0.001 µM", "endpoint": "inhibition", "value": "< 50%"}
